{"data": "Results gathered from unrelated publications", "BCHE": "Cholinesterase (BCHE, Homo sapiens, UniProt P06276)", "note": "Protocols differ between the studies behind these lines. Values joined by “and” are separate records of one study, mostly repeats; a detail may differ. ± marks the error that the study gave.", "chain of UniProt P06276 (whole entry, looked up)": "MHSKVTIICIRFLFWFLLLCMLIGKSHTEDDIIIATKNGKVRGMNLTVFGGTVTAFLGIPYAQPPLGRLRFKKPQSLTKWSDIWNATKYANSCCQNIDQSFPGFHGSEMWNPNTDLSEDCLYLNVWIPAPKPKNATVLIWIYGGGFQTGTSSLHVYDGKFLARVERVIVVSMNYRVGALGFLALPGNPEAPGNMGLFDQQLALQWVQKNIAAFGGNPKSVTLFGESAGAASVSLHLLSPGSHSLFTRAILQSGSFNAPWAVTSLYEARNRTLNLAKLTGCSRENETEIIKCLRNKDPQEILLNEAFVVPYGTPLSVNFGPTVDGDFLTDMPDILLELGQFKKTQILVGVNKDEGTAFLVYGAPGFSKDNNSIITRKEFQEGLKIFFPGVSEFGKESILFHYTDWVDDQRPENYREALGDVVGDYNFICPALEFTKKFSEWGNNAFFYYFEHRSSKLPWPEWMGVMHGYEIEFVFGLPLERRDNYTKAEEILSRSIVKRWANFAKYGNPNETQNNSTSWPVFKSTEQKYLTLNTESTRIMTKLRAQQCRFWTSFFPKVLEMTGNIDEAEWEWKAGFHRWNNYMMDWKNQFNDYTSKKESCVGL"}
{"SMILES": "c1ccc2c(c1)ccc1cc3c(ccc4ccccc43)cc12", "system": "fresh water", "setting": "12 (unit not given), 20 °C, S30-2 sampler, 30 µm", "quantity": "log K(PDMS-water)", "result": "5.2 ± 0.11"}
{"SMILES": "O=C(O)CCCOc1ccc(F)cc1-c1cc(-c2ccccc2C(F)(F)F)n(-c2ccccc2)n1", "system": "female Crl:CD(SD) rats, spleen", "setting": "intravenous, 25 µg/kg, 1 d", "quantity": "organ weight", "result": "0.46 ± 0.06 g"}
{"SMILES": "COc1cccc(Oc2ccccc2NC(=O)CNC(=O)c2cccc3ccccc23)c1", "system": "esterase-deficient SCID mice, male", "setting": "oral, 40 mg/kg/day, 14 days, toxicity study", "quantity": "urea nitrogen/creatinine ratio", "result": "320 and 175 and 185"}
{"SMILES": "O=c1ccc2ccccc2o1", "tested on": "NHEK", "assay": "cell count", "setting": "concentration not given, 6 h, heat and osmotic shock panel", "quantity": "chance response", "result": "0.01%"}
{"SMILES": "O=[N+]([O-])c1cc2c3c(ccc2c2ccccc12)[C@@H](O)[C@H](O)C=C3", "system": "female Sprague-Dawley rats", "setting": "intramammary, dose not given", "quantity": "first palpable mammary tumour", "result": "15 weeks"}
{"SMILES": "CN1CC[C@@H](c2c(O)cc(O)c3c(=O)cc(-c4ccc(C(F)(F)F)cc4Cl)oc23)[C@@H]1CO", "assay": "measured: Hypoalbuminemia", "system": "relapsed B-cell malignancies or AML", "setting": "oral, 100 mg, grade 3-4, continuous dosing", "quantity": "patients with adverse event", "result": "0%"}
{"SMILES": "Cc1cc(C(=O)NC(C)(C)COc2cccc3c2C(N)=NS(=O)(=O)N3)cc(C)n1", "tested on": "Escherichia coli", "assay": "Ames test, initial", "system": "WP2 uvrA", "setting": "1.50 µg/plate, together with: rat liver S9", "scale": "baseline: solvent control", "quantity": "revertant ratio", "result": 0.8}
{"SMILES": "COc1cc2c(Oc3ccc4[nH]c(C)cc4c3F)ccnc2cc1OCC1(N)CC1", "system": "paediatric recurrent refractory sarcoma", "setting": "8 mg/kg", "quantity": "grade 3 Fever", "result": "0%"}
{"SMILES": "CC(C)C[C@@H]1NC(=O)CNC(=O)[C@H](CC(N)=O)NC(=O)[C@H](CCCNC(=N)N)NC(=O)[C@H]([C@@H](C)O)NC(=O)[C@@H]2CSSC[C@@H]3NC(=O)[C@H]([C@@H](C)O)NC(=O)CNC(=O)CNC(=O)[C@H](C(C)C)NC(=O)[C@@H]4CSSC[C@H](NC(=O)[C@H]([C@@H](C)O)NC(=O)[C@H](CSSC[C@H](NC(=O)[C@H](C(C)C)NC(=O)[C@@H]5CCCN5C1=O)C(=O)NCC(=O)N[C@@H](CCC(=O)O)C(=O)N[C@@H]([C@@H](C)O)C(=O)N4)NC(=O)CNC(=O)[C@@H]1CCCN1C(=O)[C@H]([C@@H](C)O)NC(=O)[C@H](CC(N)=O)NC3=O)C(=O)N[C@@H](CO)C(=O)N[C@@H](Cc1c[nH]c3ccccc13)C(=O)N1CCC[C@H]1C(=O)N[C@@H](CCCCN)C(=O)N2", "assay": "HPLC", "system": "ammonium bicarbonate 0.1 M", "setting": "180 µM, 7 days, pH 9.0, 37 °C, deamidation stability", "quantity": "remaining peptide", "result": "62 ± 2.6%"}
{"SMILES": "N=C(N)NCCC[C@@H](NC(=O)[C@@H](N)Cc1ccccc1)C(=O)N[C@@H](Cc1ccccc1)C(=O)N[C@@H](CCCCN)C(N)=O", "assay": "LC-MS", "system": "human", "setting": "15 mg, 11.83 h", "quantity": "mean fraction excreted in urine", "result": "8.14%"}
{"SMILES": "COc1cc(N)c(Cl)cc1C(=O)NC[C@@H]1CCN2CCC[C@@H]12", "tested on": "BCHE", "assay": "inhibitor, fluorometric", "quantity": "IC50", "result": "8.14 ± 1.84 µM"}
{"SMILES": "Fc1ccc([C@@H]2CCNC[C@H]2COc2ccc3c(c2)OCO3)cc1", "assay": "measured: Dizziness", "system": "healthy volunteers", "setting": "oral, dose not given, given -1 h relative to LSD, together with: LSD", "scale": "direction not given", "quantity": "List of Complaints score", "result": "0 score"}
{"SMILES": "O=C(NCCCCN1CCN(c2cccc(Cl)c2Cl)CC1)c1cc2ccccc2s1", "tested on": "BCHE", "assay": "inhibitor, fluorometric", "quantity": "IC50", "result": "16.9 ± 4.22 µM"}
{"SMILES": "CN1CCN(c2ccc(Nc3nccc(-c4cccc([N+](=O)[O-])c4)n3)cc2C(F)(F)F)CC1", "system": "Danio rerio embryos", "setting": "5 µM, 5 d", "quantity": "toxicity", "result": "0%"}
{"SMILES": "C[C@]1(CO)Cc2ncn(-c3ccc(C#N)c(Cl)c3)c2C(=O)O1", "assay": "investigator-assessed", "system": "human", "setting": "5 mg single dose", "quantity": "subjects with drug-related TEAEs", "result": "0%"}
{"SMILES": "CC/C(=C(\\c1ccccc1)c1ccc(OCCN(C)C)cc1)c1ccccc1", "system": "CD-1 mouse, male, lung", "setting": "intraperitoneal, 3 mg/kg", "quantity": "Tmax", "result": "2 h"}
{"SMILES": "CO[C@H]1C[C@@H]2CC[C@@H](C)[C@@](O)(O2)C(=O)C(=O)N2CCCC[C@H]2C(=O)O[C@H]([C@H](C)C[C@@H]2CC[C@@H](OC(=O)NCCOCCOCCOCCOCCOCCOCCOCCOCCC(=O)N3CCc4cc(Cn5nc(-c6ccc7oc(N)nc7c6)c6c(N)ncnc65)ccc4C3)[C@H](OC)C2)C[C@@H](O)[C@H](C)/C=C(\\C)[C@@H](O)[C@@H](OC)C(=O)[C@H](C)C[C@H](C)/C=C/C=C/C=C/1C", "system": "patients with advanced solid tumours", "setting": "intravenous, 16 mg weekly, grade 3 or higher", "quantity": "headache incidence", "result": "0%"}
{"SMILES": "CC(=O)c1c(C)c2cnc(Nc3ccc(C4CCN(CCS(C)(=O)=O)CC4)cn3)nc2n(C2CCCC2)c1=O", "system": "human, dose-escalation trial, plasma", "setting": "oral, 50 mg twice daily, day 21, multiple doses", "quantity": "AUC(0-inf)", "result": "943 ng·h/mL"}
{"SMILES": "CC1=C(O)C(=O)C=C2C1=CC=C1[C@@]2(C)CC[C@@]2(C)[C@@H]3C[C@](C)(C(=O)O)CC[C@]3(C)CC[C@]12C", "system": "Sprague-Dawley rat pups, multiple-hit infantile spasms model", "setting": "i.p., 4 mg/kg, PN3 to PN5, CELA-4 arm", "quantity": "body weight gain rate", "result": "0.5 g/day"}
{"SMILES": "COc1cc(C2C3=C(COC3=O)N(CCO)c3cc4c(cc32)CCC4)cc(OC)c1OC (stereo not drawn)", "system": "female Sprague-Dawley rats", "setting": "intraperitoneal, 200 mg/kg, 48 h, single dose, mean", "quantity": "body weight", "result": "211 g"}
{"SMILES": "c1ccc2cc3c(cc2c1)-c1cccc2cccc-3c12", "system": "PDMS-water partitioning", "setting": "PAH compilation", "quantity": "literature range of log K", "result": "4.85 to 5.86 log units"}
{"SMILES": "O=C(O)C[C@H](NC(=O)[C@H](CC(=O)O)NC(=O)[C@H](CC(=O)O)NC(=O)[C@H](CC(=O)O)NC(=O)[C@H](CC(=O)O)NC(=O)[C@H](CC(=O)O)NC(=O)[C@H](CC(=O)O)NC(=O)[C@H](CC(=O)O)NC(=O)[C@H](CC(=O)O)NC(=O)[C@H](CC(=O)O)NC(=O)[C@H](CC(=O)O)NC(=O)[C@H](CCCCNC(=O)c1ccc(C(=O)NCCOCCOB2BBBBBB3BBBB3B2)cc1)NC(=O)CN1CCN(CC(=O)O)CCN(CC(=O)O)CCN(CC(=O)O)CC1)C(=O)O [gallium-67 labelled]", "system": "ddY male mice, liver", "setting": "intravenous, 37 kBq, 3 h", "quantity": "tissue uptake", "result": "0.13 %ID/g"}
{"SMILES": "C[C@@H]1NC(=O)[C@H](CCCCNC(=O)CO/N=C/C(=O)NCCCC[C@@H]2NC(=O)[C@@H](Cc3ccccc3)NC(=O)[C@H](CC(=O)O)NC(=O)CNC(=O)[C@H](CCCNC(=N)N)NC2=O)NC(=O)CNC(=O)[C@@H]2CCCN2C(=O)[C@H](CCCCNC(=O)CO/N=C/C(=O)NCCCC[C@@H]2NC(=O)[C@@H](Cc3ccccc3)NC(=O)[C@H](CC(=O)O)NC(=O)CNC(=O)[C@H](CCCNC(=N)N)NC2=O)NC(=O)[C@H](CCCCNC(=O)CN2CCCNCCNCCCNCC2)NC(=O)[C@H](CCCCNC(=O)CO/N=C/C(=O)NCCCC[C@@H]2NC(=O)[C@@H](Cc3ccccc3)NC(=O)[C@H](CC(=O)O)NC(=O)CNC(=O)[C@H](CCCNC(=N)N)NC2=O)NC(=O)CNC(=O)[C@@H]2CCCN2C(=O)[C@H](CCCCNC(=O)CO/N=C/C(=O)NCCCC[C@@H]2NC(=O)[C@@H](Cc3ccccc3)NC(=O)[C@H](CC(=O)O)NC(=O)CNC(=O)[C@H](CCCNC(=N)N)NC2=O)NC1=O [copper-64 labelled]", "system": "normal mice, pancreas", "setting": "intravenous, 0.74 MBq, 3 h post-injection", "quantity": "tissue uptake", "result": "0.51 ± 0.05 %ID/g"}
{"SMILES": "[131I-].[Na+]", "system": "hyperthyroidism patients", "setting": "185 MBq, long-term follow-up", "quantity": "non-thyroid malignancy incidence", "result": "0.8%"}
{"SMILES": "C[C@@H](NC(=O)N1C(=O)[C@H](Cc2ccnc(N)c2)[C@H]1C(=O)O)C1CCCCC1", "system": "healthy adult Chinese volunteers", "setting": "continuous intravenous infusion, 1.5 mg/kg/h, 5-day infusion, CTCAE 5.0 grading", "quantity": "incidence of urine erythrocyte positive", "result": "0%"}
{"SMILES": "O=C(NCCCNc1nc(Nc2cccc(NC(=O)N3CCCC3)c2)ncc1I)c1cccs1", "system": "Labrasol", "setting": "24 h, 37 °C", "quantity": "solubility", "result": "1950 ± 120 µg/mL"}
{"SMILES": "CCC(C)c1cc(C(C)(C)C)cc(-n2nc3ccccc3n2)c1O (stereo not drawn)", "system": "EpiSkin reconstructed epidermis", "setting": "concentration not given, 36 h", "quantity": "amount in receptor fluid", "result": "not detected"}
{"SMILES": "C[C@H]1CN(c2n[nH]c3nc(N[C@H]4CC[C@H](NS(=O)(=O)CCC(F)(F)F)CC4)ncc23)CCO1", "tested on": "PKN1 (Homo sapiens, UniProt Q16512)", "assay": "inhibitor, Kinobeads competition profiling", "setting": "0.8 µM", "scale": "baseline: vehicle", "quantity": "relative abundance", "result": 1.11}
{"SMILES": "N.N.[Cl][Pt][Cl]", "system": "nude mouse MCF7 xenograft", "setting": "5 mg/kg, day 4", "quantity": "body weight", "result": "17.1 ± 0.6 g"}
{"SMILES": "CC[N+](CC)(CC)CCOc1ccc(/C=C/c2ccccc2)cc1", "tested on": "Plasmodium falciparum", "system": "Dd2", "quantity": "IC50", "result": "2 µM"}
{"SMILES": "N.N.[Cl][Pt][Cl]", "system": "mice, serum", "setting": "dose not given", "quantity": "BUN", "result": "35.4 mg/dL"}
{"SMILES": "Clc1ccc(Cl)c(-c2cc(Cl)ccc2Cl)c1", "system": "fresh water", "setting": "20 °C, S100 sampler, 100 µm", "quantity": "log K(PDMS-water)", "result": "5.48 ± 0.04"}
{"SMILES": "COc1ccc(-c2c(-c3ccc(C#N)c(F)c3)nc(N3CCC(N)CC3)n(C)c2=O)cc1F", "assay": "measured: Pyrexia", "system": "human patients", "setting": "oral, dose not given, dose escalation, NG", "quantity": "serious adverse event incidence", "result": "2%"}
{"SMILES": "CN(C)CC[C@@H](c1ccc(Br)cc1)c1ccccn1", "tested on": "Plasmodium falciparum", "system": "W2", "quantity": "IC50", "result": "0.794 µM"}
{"SMILES": "CCN(CCO)CCCC(C)Nc1ccnc2cc(Cl)ccc12 (stereo not drawn)", "system": "newly diagnosed glioblastoma patients", "setting": "oral, 800 mg/dose, grade 4, together with: radiotherapy and temozolomide", "quantity": "white cell decrease patients", "result": "66%"}
{"SMILES": "Clc1ccc(Cl)c(-c2cc(Cl)ccc2Cl)c1", "system": "Sprague Dawley rat, spleen", "setting": "intraperitoneal, 100 mg/kg", "quantity": "relative organ weight", "result": "0.0027 g/g body weight"}
